Results collected from several papers.
Compare with care: the assays were run in different laboratories. Several values in a cell are separate wells, animals, samples, runs or records. ± marks the error that the study gave.
Cell line: RPMI-8226

`Cn1cncc1C1=CN(c2ncnc3[nH]cnc23)CCS1` gave a TGI of 69.2 µM (leukemia).
With `CCOC(=O)/C=C/C(=O)N(CC(C)C)NC(=O)[C@H](Cc1ccccc1)NC(=O)[C@H](CC(C)C)NC(=O)[C@H](CCc1ccccc1)NC(=O)OCc1ccccc1` the viability decrease was 25% (MTS; 10 µM, 72 h).
`CC(C)(C)NC(=O)C[C@H](NC(=O)C(=O)c1c[nH]c2ccccc12)C(=O)NCc1cccc(B(O)O)c1` gave an EC50 of 2.3 ± 0.6 µM (cytotoxicity; 72 h, 10% FBS).
With `CCCC(CCC)C(=O)OCc1cn(-c2c3ccccc3nc3ccccc23)nn1` the growth percentage was 91.5% (NCI60 single-dose screen; 10 µM).
`CCCCN1CCN(c2ccc3nc(-c4ccc5nc(-c6cc(OC)ccc6OC)[nH]c5c4)[nH]c3c2)CC1` gave a growth percent of 54.9% (SRB; 10 µM, 48 h).
The cell growth of `NNc1nc(-c2ccc(Cl)cc2)c2c(NC(=O)c3ccccc3)nnc-2[nH]1` is reported as 96.5% (SRB; 10 µM, NCI60 single-dose screen; reference: untreated).
`O=C1NC(=NCc2cccs2)S/C1=C\c1ccc2ncccc2c1` gave an IC50 of 9 µM (cytotoxicity, MTS; NCI60 panel; multiple myeloma).
`Nc1cccc2c1C(=O)N(C1CCC(=O)NC1=O)C2=O` (stereo not drawn) — result for “surface marker level”: 197% (flow cytometry, refers to: CD100; concentration not given; reference: comparator compound alone).
The cell growth of `O=C(Nc1nnc2[nH]c(=S)[nH]c(-c3ccc(Cl)cc3)c1-2)c1ccccc1` is reported as 96.3% (SRB; 10 µM, NCI60 single-dose screen; reference: untreated).
`CC(=O)O[C@H]1C(=O)[C@@]2(C)[C@H]([C@H](OC(=O)c3ccccc3)[C@]3(O)C[C@H](OC(=O)[C@H](O)[C@@H](NC(=O)c4ccccc4)c4ccccc4)C(C)=C1C3(C)C)[C@]1(OC(C)=O)CO[C@@H]1C[C@@H]2O` has a TGI of 0.32 µM (sulforhodamine B; Leukemia cancer; NCI60 screen).
`COC[C@H](NC(=O)[C@H](CCC(=O)NC(C)(C)C)NS(=O)(=O)c1ccc(C)cc1)C(=O)NCc1ccc(F)c2ccccc12` gave an EC10 of 0.25 µM (cell viability, CellTiter-Glo; 72 h).
With `COc1ccc(OC)c(-c2nc3ccc(-c4nc5ccc(N6CCN(C)CC6)cc5[nH]4)cc3[nH]2)c1` the growth percent was 89.2% (SRB; 10 µM, 48 h).
The growth percentage of `Cc1cc(=O)[nH]c(=O)n1Cc1cn(-c2c3ccccc3nc3ccccc23)nn1` is reported as 55.5% (NCI60 single-dose screen; 10 µM).
For `CCCN1CCN(c2ccc3nc(-c4ccc5nc(-c6cc(OC)ccc6OC)[nH]c5c4)[nH]c3c2)CC1`, the growth percent was -17.1% (SRB; 10 µM, 48 h).
The TGI of `CCN(CC)c1ccc(C=NNC(=O)CSc2nc3ccccc3c(=O)n2Cc2ccc(S(N)(=O)=O)cc2)c(O)c1` is reported as 4.85 µM (NCI five-dose screen).
With `CCCCN1CCN(c2ccc3[nH]c(-c4ccc5[nH]c(-c6ccc(OCC)cc6)nc5c4)nc3c2)CC1` the growth percent was -25.3% (SRB; 10 µM, 48 h).
`CCn1cc(-c2cc(Cn3ccnc3)cc3c2CCN([C@H](c2cc(OC)ccn2)C2CC2)C3=O)c(C(F)(F)F)n1` has an EC50 of 27.4 µM (cell growth, inhibitor; 120 h).
With `C#C[C@@]1(O)[C@@H](CO)O[C@@H](n2cc(I)c3c(N)ncnc32)[C@@H]1O` the TGI was 6.65 µM and 4.57 µM (SRB; NCI-60 screen).
`O=C1NC(c2ccccc2)(c2ccccc2)C(=O)N1Cc1cn(-c2cc3ccccc3oc2=O)nn1` has a growth percentage of 85.8% (NCI60 single-dose screen; 10 µM).
For `Cc1n[nH]c2nc(-c3ccc(Cl)cc3)c3c(NC(=O)c4ccccc4)nnc-3n12`, the cell growth was 84.3% (SRB; 10 µM, NCI60 single-dose screen; reference: untreated).
For `C#C[C@@]1(O)[C@@H](CO)O[C@@H](n2cc(F)c3c(N)ncnc32)[C@@H]1O`, the TGI was 1.98 µM (SRB; NCI-60 screen).
With `O=C(Nc1nnc2n3c(nc(-c4ccc(Cl)cc4)c1-2)SCC3=O)c1ccccc1` the cell growth was 93.3% (SRB; 10 µM, NCI60 single-dose screen; reference: untreated).
For `CN1CCN(c2ccc3[nH]c(-c4ccc5[nH]c(-c6ccc(C(F)(F)F)cc6)nc5c4)nc3c2)CC1`, the growth percent was -9.04% (SRB; 10 µM, 48 h).
The cell growth of `Cc1cc(-c2ccccc2)n(-c2nc(-c3ccc(Cl)cc3)c3c(NC(=O)c4ccccc4)nnc-3[nH]2)n1` is reported as 96% (SRB; 10 µM, NCI60 single-dose screen; reference: untreated).
For `CCCCN1CCN(c2ccc3[nH]c(-c4ccc5[nH]c(-c6ccc(C(F)(F)F)cc6)nc5c4)nc3c2)CC1`, the growth percent was -35.3% (SRB; 10 µM, 48 h).
`CCOC(=O)CSc1nc(-c2ccc(Cl)cc2)c2c(NC(=O)c3ccccc3)nnc-2[nH]1` gave a cell growth of 82.2% (SRB; 10 µM, NCI60 single-dose screen; reference: untreated).
With `Cc1cc(C)n(C(=S)[S][Au][PH](CCCCCC[PH]([Au][S]C(=S)n2nc(C)cc2C)(c2ccccc2)c2ccccc2)(c2ccccc2)c2ccccc2)n1` the log10 TGI was -6.38 (cell growth, NCI-60 screen; leukemia).
